Measurements collected from several papers.
Protocols differ between the studies behind these lines. Numbers after ± are the reported error.
UniProt P29597, sequence (whole entry, looked up): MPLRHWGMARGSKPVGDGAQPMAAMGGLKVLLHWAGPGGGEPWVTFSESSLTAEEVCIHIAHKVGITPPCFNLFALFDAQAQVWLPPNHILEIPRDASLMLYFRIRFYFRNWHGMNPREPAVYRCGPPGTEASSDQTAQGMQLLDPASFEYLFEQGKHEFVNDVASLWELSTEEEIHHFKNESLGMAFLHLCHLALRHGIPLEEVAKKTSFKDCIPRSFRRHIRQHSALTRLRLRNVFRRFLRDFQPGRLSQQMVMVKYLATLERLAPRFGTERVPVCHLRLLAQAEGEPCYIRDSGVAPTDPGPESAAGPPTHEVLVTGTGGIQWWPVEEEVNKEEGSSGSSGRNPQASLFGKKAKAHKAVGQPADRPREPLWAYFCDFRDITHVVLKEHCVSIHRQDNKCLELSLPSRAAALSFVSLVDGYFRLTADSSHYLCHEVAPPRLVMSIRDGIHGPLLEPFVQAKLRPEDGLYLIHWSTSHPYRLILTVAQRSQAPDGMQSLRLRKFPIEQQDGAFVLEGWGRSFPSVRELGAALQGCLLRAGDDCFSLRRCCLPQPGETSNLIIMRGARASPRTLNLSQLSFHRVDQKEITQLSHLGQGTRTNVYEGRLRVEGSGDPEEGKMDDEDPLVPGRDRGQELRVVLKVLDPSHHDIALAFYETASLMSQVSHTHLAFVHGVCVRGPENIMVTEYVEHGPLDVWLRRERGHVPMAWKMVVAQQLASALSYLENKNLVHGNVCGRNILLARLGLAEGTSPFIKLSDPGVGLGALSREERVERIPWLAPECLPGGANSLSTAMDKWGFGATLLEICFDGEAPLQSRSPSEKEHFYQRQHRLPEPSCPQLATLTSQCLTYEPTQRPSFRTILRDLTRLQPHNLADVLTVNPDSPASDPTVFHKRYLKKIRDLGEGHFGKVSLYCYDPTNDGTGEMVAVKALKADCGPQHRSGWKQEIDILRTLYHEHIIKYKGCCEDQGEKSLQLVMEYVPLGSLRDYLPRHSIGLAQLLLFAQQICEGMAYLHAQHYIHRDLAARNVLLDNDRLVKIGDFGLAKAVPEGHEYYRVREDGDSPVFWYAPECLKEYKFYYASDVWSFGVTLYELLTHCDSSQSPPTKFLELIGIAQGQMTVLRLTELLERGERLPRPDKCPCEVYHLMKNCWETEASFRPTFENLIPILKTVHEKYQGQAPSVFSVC
UniProt Q05513, sequence (whole entry, looked up): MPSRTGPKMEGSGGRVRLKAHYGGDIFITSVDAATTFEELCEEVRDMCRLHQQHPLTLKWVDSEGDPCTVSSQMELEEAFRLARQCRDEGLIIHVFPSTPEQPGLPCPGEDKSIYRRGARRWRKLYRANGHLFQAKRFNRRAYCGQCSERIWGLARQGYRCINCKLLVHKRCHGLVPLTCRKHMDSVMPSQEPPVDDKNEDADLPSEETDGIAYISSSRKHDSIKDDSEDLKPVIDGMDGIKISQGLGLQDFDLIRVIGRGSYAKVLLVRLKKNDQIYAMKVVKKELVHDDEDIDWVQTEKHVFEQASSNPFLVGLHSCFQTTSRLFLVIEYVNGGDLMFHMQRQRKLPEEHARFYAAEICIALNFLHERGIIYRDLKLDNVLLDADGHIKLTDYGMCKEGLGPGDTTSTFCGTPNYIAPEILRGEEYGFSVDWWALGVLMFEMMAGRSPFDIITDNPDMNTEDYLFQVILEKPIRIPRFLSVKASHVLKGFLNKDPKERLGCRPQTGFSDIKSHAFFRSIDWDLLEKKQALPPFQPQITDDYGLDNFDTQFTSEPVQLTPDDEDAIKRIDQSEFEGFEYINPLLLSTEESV
UniProt O75116, sequence (whole entry, looked up): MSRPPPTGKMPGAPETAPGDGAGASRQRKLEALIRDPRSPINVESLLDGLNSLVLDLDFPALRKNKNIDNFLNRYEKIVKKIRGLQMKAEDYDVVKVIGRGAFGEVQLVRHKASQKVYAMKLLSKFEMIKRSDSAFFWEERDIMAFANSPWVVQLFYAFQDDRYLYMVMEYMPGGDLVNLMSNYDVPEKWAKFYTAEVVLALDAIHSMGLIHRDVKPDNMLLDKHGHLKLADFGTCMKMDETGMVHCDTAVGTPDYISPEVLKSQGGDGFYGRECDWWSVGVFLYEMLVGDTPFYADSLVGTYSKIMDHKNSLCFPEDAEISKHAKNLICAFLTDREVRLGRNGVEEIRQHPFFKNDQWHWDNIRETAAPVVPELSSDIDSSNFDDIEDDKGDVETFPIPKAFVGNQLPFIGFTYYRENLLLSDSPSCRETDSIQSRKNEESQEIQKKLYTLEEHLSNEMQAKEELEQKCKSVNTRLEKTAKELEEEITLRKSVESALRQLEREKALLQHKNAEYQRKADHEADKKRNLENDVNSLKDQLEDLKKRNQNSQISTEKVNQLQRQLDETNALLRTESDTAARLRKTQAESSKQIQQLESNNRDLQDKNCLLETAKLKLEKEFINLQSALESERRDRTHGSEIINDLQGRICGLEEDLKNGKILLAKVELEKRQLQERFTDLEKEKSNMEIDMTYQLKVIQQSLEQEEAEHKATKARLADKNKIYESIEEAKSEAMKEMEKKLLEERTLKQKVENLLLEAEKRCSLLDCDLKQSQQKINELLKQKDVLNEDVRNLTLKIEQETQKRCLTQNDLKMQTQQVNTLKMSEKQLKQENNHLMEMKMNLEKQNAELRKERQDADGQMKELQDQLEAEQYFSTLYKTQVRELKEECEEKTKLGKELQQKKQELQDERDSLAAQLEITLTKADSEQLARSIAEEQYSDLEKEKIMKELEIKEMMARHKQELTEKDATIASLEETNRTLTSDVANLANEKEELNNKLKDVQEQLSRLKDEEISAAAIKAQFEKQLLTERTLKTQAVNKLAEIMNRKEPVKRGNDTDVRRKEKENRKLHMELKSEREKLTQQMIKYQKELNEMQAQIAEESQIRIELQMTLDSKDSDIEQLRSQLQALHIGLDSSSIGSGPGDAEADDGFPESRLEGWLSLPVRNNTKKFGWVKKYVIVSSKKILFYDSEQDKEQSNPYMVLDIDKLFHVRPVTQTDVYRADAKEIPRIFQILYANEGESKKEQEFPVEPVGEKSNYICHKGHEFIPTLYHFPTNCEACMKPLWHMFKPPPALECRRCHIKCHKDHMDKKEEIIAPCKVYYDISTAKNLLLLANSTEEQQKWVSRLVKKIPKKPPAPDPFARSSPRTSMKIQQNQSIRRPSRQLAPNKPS
UniProt Q8IW41, sequence (whole entry, looked up): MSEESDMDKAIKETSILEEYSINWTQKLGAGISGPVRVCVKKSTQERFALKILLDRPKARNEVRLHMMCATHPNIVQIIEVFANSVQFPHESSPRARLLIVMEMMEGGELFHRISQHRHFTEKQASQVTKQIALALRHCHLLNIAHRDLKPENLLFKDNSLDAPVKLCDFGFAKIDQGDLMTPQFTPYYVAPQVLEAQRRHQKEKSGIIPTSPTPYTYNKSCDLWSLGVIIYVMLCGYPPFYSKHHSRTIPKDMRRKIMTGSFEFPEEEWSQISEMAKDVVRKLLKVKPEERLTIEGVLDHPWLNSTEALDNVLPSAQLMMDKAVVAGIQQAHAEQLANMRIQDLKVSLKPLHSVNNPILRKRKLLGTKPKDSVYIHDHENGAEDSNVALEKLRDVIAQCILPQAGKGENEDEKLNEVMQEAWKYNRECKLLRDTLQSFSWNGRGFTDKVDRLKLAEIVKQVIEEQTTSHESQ
UniProt Q09013, sequence (whole entry, looked up): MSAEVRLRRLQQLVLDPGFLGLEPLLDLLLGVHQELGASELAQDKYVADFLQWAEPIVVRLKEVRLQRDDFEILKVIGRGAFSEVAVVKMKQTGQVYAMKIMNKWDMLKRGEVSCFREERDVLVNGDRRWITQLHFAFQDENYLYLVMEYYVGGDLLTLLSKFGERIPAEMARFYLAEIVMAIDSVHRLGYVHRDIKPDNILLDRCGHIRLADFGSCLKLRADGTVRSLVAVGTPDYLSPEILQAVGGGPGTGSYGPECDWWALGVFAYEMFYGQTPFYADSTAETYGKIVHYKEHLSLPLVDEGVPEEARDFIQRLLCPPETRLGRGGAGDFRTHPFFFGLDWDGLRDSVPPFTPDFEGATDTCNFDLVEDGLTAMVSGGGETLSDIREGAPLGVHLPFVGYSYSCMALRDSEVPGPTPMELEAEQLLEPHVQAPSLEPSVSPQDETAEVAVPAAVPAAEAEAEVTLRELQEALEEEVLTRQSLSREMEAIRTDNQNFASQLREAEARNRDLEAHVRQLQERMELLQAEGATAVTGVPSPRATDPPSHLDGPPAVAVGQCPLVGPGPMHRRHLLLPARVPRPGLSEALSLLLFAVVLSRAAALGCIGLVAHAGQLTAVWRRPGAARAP

SMILES | target or system | assay | system | conditions | how to read | endpoint | value
CNc1ncc2c(/C=C/C(=O)N3CCC(OC)CC3)nn(Cc3cccc(C(F)(F)F)c3)c2n1 | Protein kinase C zeta type (PRKCZ, Homo sapiens, UniProt Q05513) | kinase activity, inhibitor |  | 1 µM | baseline: untreated control | remaining activity | 100%
C[n+]1cc2c3c(ccc2c2ccc4cc5c(cc4c21)OCO5)OCO3 | human iPSC-derived cardiomyocytes | MyBP-C/MYH ratio, plate-normalised SD score |  | concentration not given, primary screen | direction not given | activity score | 8.3
COc1cc(Nc2ncc3c(n2)-c2ccc(Cl)cc2C(c2c(F)cccc2OC)=NC3)ccc1C(=O)O | PTK2 | kinase activity |  | 1 µM |  | remaining activity | 27%
NC(=O)c1ncn([C@@H]2O[C@H](CO[P@@](=O)(O)O[P@](=O)(O)OP(=O)(O)O)[C@@H](O)[C@H]2O)n1 | Non-structural polyprotein pORF1, RNA-dependent RNA polymerase (Hepatitis E virus genotype 1, UniProt P33424) | polymerase activity, inhibitor, colorimetric |  | 3.5 µM | baseline: untreated | remaining activity | 82.2%
Cc1cc(Nc2cc(N3CCN(C)CC3)nc(Sc3ccc(NC(=O)C4CC4)cc3)n2)[nH]n1 | MAP kinase-activated protein kinase 5 (MAPKAPK5, Homo sapiens, UniProt Q8IW41) | kinase activity, KinaseProfiler |  | 0.03 µM, species human | baseline: control | remaining activity | 109%
O=C(O)c1ccc(Nc2ncc3c(n2)-c2ccc(Cl)cc2C(c2c(F)cccc2F)=NC3)cc1 | FAK(h) | kinase activity |  | 1 µM |  | remaining activity | 110%
COc1cc(-c2cncc3c2CN(C)Cc2cc(N4CCNCC4)ccc2-3)cc(OC)c1OC | Non-receptor tyrosine-protein kinase TYK2 (TYK2, Homo sapiens, UniProt P29597) | kinase activity |  | 1 µM, human enzyme, with: ATP 10 µM | baseline: DMSO control | remaining activity | 103%
COc1cc(F)ccc1-c1ncnc(Nc2cccc(C[S@](C)(=N)=O)c2)n1 | Myotonin-protein kinase (DMPK, Homo sapiens, UniProt Q09013) | kinase activity |  | 10 µM, with: 10 µM ATP |  | remaining activity | 94%
O=C1Cc2cc(CCN3CCN(c4nsc5ccccc45)CC3)c(Cl)cc2N1 | human iPSC-derived cardiomyocytes | MyBP-C/MYH ratio, plate-normalised SD score |  | concentration not given, primary screen | direction not given | activity score | 3.3
Cn1cc(-c2ccc(-c3cncc(Cl)c3N3CCC4(CCNC4=O)CC3)cc2)cn1 | COLO 205 | gene expression, microarray, item: HIST1H4J mRNA |  | concentration not given, 6 h | baseline: untreated cells | log2 fold change | -2.7
O=C(NC1CCC1)c1ccc2nc(-c3cccc(NS(=O)(=O)NCCN4CCCCC4)c3)cn2c1 | Rho-associated protein kinase 2 (ROCK2, Homo sapiens, UniProt O75116) | enzyme activity |  | 10 µM |  | remaining activity | 98%
CC(C)C[C@H](NC(=O)C[C@H](O)[C@H](CC(C)C)NC(=O)[C@H](Cc1c[nH]cn1)NC(=O)CNC(=O)[C@@H](NC(=O)[C@H](C)NC(=O)[C@H](Cc1c[nH]c2ccccc12)NC(=O)[C@H](CCC(N)=O)NC(=O)[C@@H](Cc1ccccc1)NC(=O)COCCOCCNC(=O)CCC(C(=O)O)N1CCN(CC(=O)O)CCN(CC(=O)O)CCN(CC(=O)O)CC1)C(C)C)C(N)=O (stereo partly shown) [lutetium-177 labelled] |  |  | BALB/c nu/nu mice, female, tumor | 50 pmol, 1 h, with: PBS co-injection |  | tissue uptake | 12 ± 3 %ID/g
O=C1NC(=O)/C(=C/c2ccc(-c3ccc(F)cc3O)o2)S1 | Serine/threonine-protein kinase pim-3 (PIM3, Homo sapiens, UniProt Q86V86) | enzyme activity |  | 10 µM |  | remaining activity | 7%

A few entries again:
SMILES | target or system | assay | system | conditions | how to read | endpoint | value
O=C(NC1CCC1)c1ccc2nc(-c3cccc(NS(=O)(=O)NCCN4CCCCC4)c3)cn2c1 | Rho-associated protein kinase 2 (ROCK2, Homo sapiens, UniProt O75116) | enzyme activity |  | 10 µM |  | remaining activity | 98%
